Measurements collected from several papers.
Each line is one published result; not all experiments were run side by side. Several values in a cell are separate wells, animals, samples, runs or records. Numbers after ± are the reported error. Values after ≈ are worked out from the molar mass of the structure shown.

SMILES	organism	test	test system	setting	how to read	measurement	value
[2H]C([2H])([2H])C1(C([2H])([2H])[2H])NC(=O)N(c2ccc(F)c(C(C)(F)F)c2)C1=O	Schistosoma mansoni		juvenile stage, infected mice	oral, single dose		ED50	18 mg/kg
C[C@@H]1C(=O)O[C@@H](C)/C=C/C=C\[C@@H](C)[C@@H]2C=C[C@@H]3C[C@@]4(C)O[C@H]4[C@@H](C)[C@H]3[C@@H]2C(=O)C(Cl)(Cl)C1=O	Staphylococcus aureus		MRSA clinical isolate	resistant, OXA, CIP, MXF, GEN, CLI		MIC	0.05 µg/mL (≈ 0.101 µM)
COC1C=COC2(C)Oc3c(C)c(O)c4c(c3C2=O)C2=NC3(CCN(CC(C)C)CC3)NC2=C(NC(=O)C(C)=CC=CC(C)C(O)C(C)C(O)C(C)C(OC(=O)Nc2cccnn2)C1C)C4=O (centres unmarked)	Mycobacteroides abscessus	bacterial growth	subsp. abscessus ATCC 19977			IC50	23 nM
CC(C)(C)NCC(SS(=O)(=O)O)c1ccccc1 (centres unmarked)	Schistosoma mansoni		mice	400 mg/kg single dose, dosed day 7, perfused 52		female worms recovered	10 worms per mouse and 15 worms per mouse and 24 worms per mouse and 14 worms per mouse
CC1=C(Cn2cc(CN3CCC(=O)CC3)nn2)C(=O)c2ccccc2C1=O	Schistosoma mansoni		adult worms	25 µM, 72 h		killing	50%
C=C[C@]1(C)C[C@@H](OC(=O)CSc2ccc(NC(=O)c3ccco3)cc2)[C@]2(C)[C@H](C)CC[C@]3(CCC(=O)[C@H]32)[C@@H](C)[C@@H]1O	Mycoplasma gallisepticum		infected chickens, lung	intramuscular, 60 mg/kg daily x3, 72 h	baseline: 0 h	lung mycoplasma load reduction	1.75 log10 CFU/mL and 1.56 log10 CFU/mL and 3.01 log10 CFU/mL and 2.92 log10 CFU/mL and 2.48 log10 CFU/mL and 2.22 log10 CFU/mL and 2.23 log10 CFU/mL and 4.03 log10 CFU/mL
CC(C)[C@@H](C)Nc1nc(-c2cccs2)nc(Cl)c1-c1c(F)cc(F)cc1F	Schistosoma mansoni	motility	adult worms, ex vivo	24 h		EC50	540 nM
Cc1cc(C(=O)Nc2nc3cccc(C)c3n2[C@H]2CCCCN(C(=O)/C=C/CN(C)C)C2)ccn1	Trypanosoma brucei brucei		Lister 427	1.85 µM, 0 h, kill kinetics		proliferation	100%
CCN(CC)CC#CCNc1ccnc2cc(Cl)ccc12	Plasmodium falciparum		RF12			IC50	78.5 nM
CC1=C(Cn2cc(CN3CCC(F)(F)CC3)nn2)C(=O)c2ccccc2C1=O	Schistosoma mansoni		adult worms	10 µM, 48 h		killing	40.7%
Cc1c(CN(C)C(=O)/C=C/c2cnc3c(c2)CC(N)C(=O)N3)oc2ccccc12 (centres unmarked)	Acinetobacter baumannii	broth microdilution	AR-0278			MIC	32 µg/mL (≈ 82 µM)
CC(=O)OC[C@H]1O[C@@H](Sc2sc(C(=O)c3ccc(C)cc3)c(N)c2-c2nc3ccccc3s2)[C@H](OC(C)=O)[C@@H](OC(C)=O)[C@@H]1OC(C)=O	hepatitis A virus	plaque reduction	HM 175	non-toxic dose NG, mean over three titres		viral reduction	10%
COc1ccc(C2=Nc3cc(OC)c(OC)cc3C(c3ccccc3)N2C2CCN(Cc3ccccc3)CC2)cc1 (racemic)	Naegleria fowleri		ATCC 30215	concentration not given		growth inhibition	inactive
CC[C@H](C)[C@H](NC(=O)[C@@H]1CCCN1C(=O)[C@H](CCSC)NC(=O)[C@H](CC(C)C)NC(=O)[C@H](Cc1ccccc1)NC(=O)[C@H](Cc1ccc(O)cc1)NC(=O)[C@@H]1CCC(=O)NCC(=O)NCC(=O)NCC(=O)NCC(=O)N2CCC[C@H]2C(=O)N[C@@H]([C@@H](C)O)C(=O)N2CCC[C@H]2C(=O)N1)C(=O)N[C@@H](CC(=O)O)C(=O)N1CCC[C@H]1C(=O)N[C@@H](C)C(=O)N[C@@H](Cc1c[nH]c2ccccc12)C(=O)N[C@@H](CC(C)C)C(=O)N[C@@H](CCC(N)=O)C(=O)N[C@@H](C)C(=O)N[C@@H](CC(N)=O)C(=O)N[C@@H](CC(C)C)C(=O)N1CCC[C@H]1C(=O)N[C@@H](CC(N)=O)C(=O)N[C@H](C(=O)NCC(=O)N[C@@H](CCCCN)C(=O)N[C@@H](Cc1ccc(O)cc1)C(=O)N[C@@H](CC(N)=O)C(=O)O)[C@@H](C)O	Bacillus subtilis	spot-on-lawn	168	concentration not given, 30 °C		antimicrobial activity	inactive
C=C(NC(=O)c1csc(-c2nc3c(cc2O)-c2nc(cs2)C(=O)NC(C(C)O)C(=O)NC(=C(C)OC)c2nc(cs2)C(=O)NC2c4nc(cs4)C(=O)NC(COC(=O)c4c5c6c(cccc6n4O)COC(=O)C(OC4CC(C)(O)C(N(C)C)C(C)O4)C2OC5)c2nc-3cs2)n1)C(N)=O (centres unmarked)	Streptococcus pneumoniae		-4, immunocompromised mice, lung	8 mg/kg/day thrice daily, 24 h post-dose		lung bacterial load	4.78 log10 CFU/lung
CC1C=CC=CC(C)C2C=CC3CC(C)(O)C(Cl)C(C)C3C2C(=O)C(Cl)(Cl)C(=O)C(C)C(=O)O1 (centres unmarked)	Staphylococcus aureus		MRSA clinical isolate	resistant OXA/ERY/TET		MIC	0.1 µg/mL (≈ 0.188 µM)
FC(F)(F)c1cccc(CNc2nc(NC3CCN(Cc4ccccc4)CC3)c3nc[nH]c3n2)c1	Cryptococcus neoformans	RNA-seq, measured: CNAG_06065 mRNA		48 µg/mL, 3 h	baseline: untreated wild type	log2 fold change	-0.892
CCn1c(C)c(CC(=O)N[C@@H](Cc2ccccc2)C(=O)N(C)c2cccc(F)c2)c2ccccc21	HIV-1	infectivity of progeny virus	HEK293FT, NL4-3			EC50	460 ± 200 nM

SMILES	organism	test	test system	setting	how to read	measurement	value
CC(=O)O[C@@H]1[C@@H](OC(C)=O)[C@H](Sc2sc(C(=O)c3ccc(Br)cc3)c(N)c2-c2nc3ccccc3s2)OC[C@H]1OC(C)=O	hepatitis A virus	plaque reduction	HM 175	non-toxic concentration		viral titre reduction	20%
O=C(NCC(O)(Cn1cncn1)c1ccc(F)cc1F)[c-]1cccc1.[Cl-].[Co+3].c1cc[cH-]c1 (racemic)	Brugia pahangi	motility, Worminator	adult female	50 µM, 3 d		inhibition	0%
CC1(C)[C@H](NC(=O)/C(=N\OC2(C(=O)O)CCCCC2)c2csc(N)n2)C(=O)N1OS(=O)(=O)O	Proteus mirabilis	agar dilution	ATCC 49565, susceptible			MIC	0.125 µg/mL (≈ 0.247 µM)
OC(Cn1cncn1)(Cn1cc(-[c-]2cccc2)nn1)c1ccc(F)cc1F.[Cl-].[Co+3].c1cc[cH-]c1 (racemic)	Brugia pahangi	motility, Worminator	adult female	50 µM, 0 d		inhibition	22%
CCn1c(C)c(CC(=O)N[C@@H](Cc2ccccc2)C(=O)N(C)c2ccc(Cl)cc2)c2ccccc21	HIV-1	infectivity of progeny virus	HEK293FT, NL4-3			EC50	670 ± 200 nM
CCC1(CC)CC(=O)N(C2c3cc(C(=O)NC4c5ccccc5CC4O)ccc3OC2(C)COC)C(=N)N1 (centres unmarked)	Plasmodium falciparum	parasite growth		72 h, blood stage		EC50	0.4 nM
CC(=O)O[C@@H]1[C@@H](OC(C)=O)[C@H](Sc2sc(C(=O)c3ccc(C)cc3)c(N)c2-c2nc3ccccc3s2)OC[C@H]1OC(C)=O	hepatitis A virus	plaque reduction	HM 175	non-toxic concentration		viral titre reduction	20%
CN(C(=O)[C@H](Cc1ccccc1)NC(=O)Cc1c[nH]c2ccc(O)cc12)c1ccc(Cl)cc1	HIV-1	viral replication				EC50	32 ± 10 nM
CO[C@H]1O[C@H](COC(c2ccccc2)(c2ccccc2)c2ccccc2)[C@@H](OS(=O)(=O)c2ccccc2)[C@H](OS(=O)(=O)c2ccccc2)[C@H]1OS(=O)(=O)c1ccccc1	Bacillus subtilis	microbial killing, broth dilution				MBC	16 µg/mL (≈ 18.7 µM)
CCCCCCCCCC(=O)N[C@@H](Cc1c[nH]c2ccccc12)C(=O)N[C@H](CC(N)=O)C(=O)N[C@@H](CC(=O)O)C(=O)N[C@@H]1C(=O)NCC(=O)N[C@@H](CCCNC(=O)OC2/C=C/CCCCC2)C(=O)N[C@@H](CC(=O)O)C(=O)N[C@H](C)C(=O)N[C@@H](CC(=O)O)C(=O)NCC(=O)N[C@H](CO)C(=O)N[C@@H]([C@H](C)CC(=O)O)C(=O)N[C@@H](CC(=O)c2ccccc2N)C(=O)O[C@@H]1C (some centres unmarked)	Staphylococcus aureus	isothermal microcalorimetry	MRSA	3.0 µg/mL, 24 h, 37 °C		peak heat flow	0 µW
Cc1ccc(N(C)C(=O)[C@H](Cc2ccccc2)NC(=O)Cc2c[nH]c3ccc(O)cc23)cc1	HIV-1	viral replication	NL4-3 with subtype C gag/pol			EC50	81 ± 30 nM
CC(=O)OC[C@H]1O[C@@H](Sc2sc(C(=O)c3ccc(Br)cc3)c(N)c2-c2nc3ccccc3s2)[C@H](OC(C)=O)[C@@H](OC(C)=O)[C@@H]1OC(C)=O	hepatitis A virus	plaque reduction	HM 175	non-toxic concentration		viral titre reduction	40%
Cc1[nH]c2ccccc2c1CC(=O)N[C@@H](Cc1ccccc1)C(=O)N(C)c1ccccc1	HIV-1	viral replication				EC50	610 ± 200 nM
Nc1c(C(=O)c2ccc(Cl)cc2)sc(S)c1-c1nc2ccccc2s1	hepatitis A virus	plaque reduction	HM 175	non-toxic dose NG, mean over three titres		viral reduction	0%
CCCOC(=O)N1c2cc(CNC)ccc2[C@H](NC(=O)C(=O)Nc2ccc(Cl)c(F)c2)[C@H]1CNC(=N)N	HIV-1	viral infection	TZM-bl, CRF02_AG 263-8 Env pseudovirus			IC50	347 nM
CC(C)NCC(SS(=O)(=O)O)c1ccccc1 (centres unmarked)	Schistosoma mansoni		infected mice	100 mg/kg x4, dosed from day 11, perfusion day 25		mean worms recovered	31 worms per mouse
CC(=O)OC[C@H]1O[C@@H](Sc2sc(C(=O)c3ccc(Cl)cc3)c(N)c2-c2nc3ccccc3s2)[C@H](OC(C)=O)[C@@H](OC(C)=O)[C@@H]1OC(C)=O	hepatitis A virus	plaque reduction	HM 175	non-toxic concentration		viral titre reduction	10%
